# Assay results from different studies.
# Each numbered part is a random draw from the data of one study; scales do not carry over between parts.

# Series 1
# Target: Fragile X messenger ribonucleoprotein 1, C-terminal low-complexity region (Fmr1, Mus musculus, UniProt P35922)
# Method: RNA Bind-n-Seq
# Form: RNA
# Medium: in vitro
# Tested at: 200 nM
# Notes: whole 134-nt RNA, ends assumed
# Added: 150 mM KCl
# Baseline: input library
# Direction: higher = stronger binding
Strand,log2 enrichment
GGGAGUUCUACAGUCCGACGAUCCAAGUCCUGUGCUACACAUCGUAUGUACCGAAUCGGGAAAGGAAAGGGGAAAGGGAAAGUAUUAUGUUACGCCGUUCGGAUCUGCACUUCUGGAAUUCUCGGGUGUCAAGG,0.205
GGGAGUUCUACAGUCCGACGAUCCAAGUCCUGUGCUACACAUCGUAUGUACCGAAUCGGGUUUGGGGUUUGGGGUUUGGAAAGUAUUAUGUUACGCCGUUCGGAUCUGCACUUUGGAAUUCUCGGGUGUCAAGG,-0.127
GGGAGUUCUACAGUCCGACGAUCCUGUGCUACACAUCGUAUGUACCGAAUCGGGGAAAAAAAGGGGAAAGGGGUUUUUUUGGGGAAAGUAUUAUGUUACGCCGUUCGGAUCUGUGGAAUUCUCGGGUGUCAAGG,-0.294
GGGAGUUCUACAGUCCGACGAUCUAACUUUAGAGGAGGAUCUGAUGGAUAUGGCAGUGGACGUGGAUUUGGGGAUGGCUAUAAUGGGUCUGGAGGAGGACCUGGAGGUGGCAAUGGAAUUCUCGGGUGUCAAGG,0.224

# Series 2
# Target: Histone acetyltransferase KAT6A, both winged helices, GST fusion (KAT6A, Homo sapiens, UniProt Q92794, residues 1-181)
# Method: protein binding microarray
# Form: double-stranded DNA, one strand shown
# Medium: in vitro
# Tested at: not given
# Notes: 8-mer, flanks averaged, mean of 2 arrays, mostly near background
# Baseline: not given
# Direction: higher = stronger binding
# Construct (chain): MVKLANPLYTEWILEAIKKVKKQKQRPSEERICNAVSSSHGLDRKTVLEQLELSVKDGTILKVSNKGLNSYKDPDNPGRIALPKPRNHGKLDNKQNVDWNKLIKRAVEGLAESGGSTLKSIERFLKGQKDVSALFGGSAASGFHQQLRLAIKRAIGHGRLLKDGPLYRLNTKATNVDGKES
Strand,E-score
CTGATCGC,0.0654
CGGGCGGC,0.346
ACTTCAGC,-0.0543
AGACCTGC,-0.142
AACGAGGC,-0.0815
GTGATCTA,-0.00643

# Series 3
# Target: Interferon regulatory factor 7, full length, phosphomimetic (IRF7, Homo sapiens, UniProt Q92985, residues 1-503, S101K/S471D/S472D/S475D/S476D/S477D/S483D/S484D/S487D)
# Method: protein-binding microarray
# Form: double-stranded DNA, one strand shown
# Medium: in vitro
# Tested at: 250 nM
# Notes: 60-bp whole probe
# Added: salmon DNA 0.4 mg/ml
# Baseline: random background probes
# Direction: higher = stronger binding
# Shared flanks, not repeated: GCCTAGCAC … GTCTTGATTCGCTTGACGCTGCTG
# Residues (chain): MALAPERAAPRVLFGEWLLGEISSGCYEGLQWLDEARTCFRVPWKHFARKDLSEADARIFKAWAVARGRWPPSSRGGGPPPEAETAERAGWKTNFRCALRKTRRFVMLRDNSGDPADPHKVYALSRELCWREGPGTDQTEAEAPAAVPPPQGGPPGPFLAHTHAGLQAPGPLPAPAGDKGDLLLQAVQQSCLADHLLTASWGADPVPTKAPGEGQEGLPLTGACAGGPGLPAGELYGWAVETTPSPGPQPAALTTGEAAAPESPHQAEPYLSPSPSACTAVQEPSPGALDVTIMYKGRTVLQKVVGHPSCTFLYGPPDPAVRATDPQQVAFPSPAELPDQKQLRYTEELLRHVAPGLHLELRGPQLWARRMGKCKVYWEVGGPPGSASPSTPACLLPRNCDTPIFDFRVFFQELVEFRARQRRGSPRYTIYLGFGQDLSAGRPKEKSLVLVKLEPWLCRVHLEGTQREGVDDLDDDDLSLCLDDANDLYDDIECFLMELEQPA
Strand,log fluorescence [z-score]
CACGGTTTCGGTTCCGGGACGTGCTAG,12.6
GACGGTATCGGGAATCGGGACGTGCTA,0.0442
TTAGATATCAGACTGGATTCGTGCTAG,0.0798
TTAGTTTTCGGGTTTCGGTTAGTGCTA,9.22
TCATTTCTGTTTTTGCTACTGTGCTAG,2.22
TTAGATATCGGTTATCGATTAGTGCTA,0.663
GACGGTTTCGGACTGGGTACGTGCTAG,4.01

# Mixed results
Substance,target,test,test system,conditions,how to read,measurement,result
"PhoQ, residues 284 288 289 292 302 303 ASASEQ","PhoP, residues 12 14 15 18 19 IFFTR (Escherichia coli, UniProt P23836)","Sort-seq, item: YFP reporter",E. coli,"PhoQ-PhoP variant library, added: 10 µM Mg2+","baseline: high Mg2+ state, higher = stronger signaling",fold induction,15.3

# Repeated from above (series 2):
Strand,E-score
AGACCTGC,-0.142
